Measured values from different studies.
Parts stem from different laboratories: compare values within a part only.
UniProt P42336, sequence (whole entry, unmodified, looked up): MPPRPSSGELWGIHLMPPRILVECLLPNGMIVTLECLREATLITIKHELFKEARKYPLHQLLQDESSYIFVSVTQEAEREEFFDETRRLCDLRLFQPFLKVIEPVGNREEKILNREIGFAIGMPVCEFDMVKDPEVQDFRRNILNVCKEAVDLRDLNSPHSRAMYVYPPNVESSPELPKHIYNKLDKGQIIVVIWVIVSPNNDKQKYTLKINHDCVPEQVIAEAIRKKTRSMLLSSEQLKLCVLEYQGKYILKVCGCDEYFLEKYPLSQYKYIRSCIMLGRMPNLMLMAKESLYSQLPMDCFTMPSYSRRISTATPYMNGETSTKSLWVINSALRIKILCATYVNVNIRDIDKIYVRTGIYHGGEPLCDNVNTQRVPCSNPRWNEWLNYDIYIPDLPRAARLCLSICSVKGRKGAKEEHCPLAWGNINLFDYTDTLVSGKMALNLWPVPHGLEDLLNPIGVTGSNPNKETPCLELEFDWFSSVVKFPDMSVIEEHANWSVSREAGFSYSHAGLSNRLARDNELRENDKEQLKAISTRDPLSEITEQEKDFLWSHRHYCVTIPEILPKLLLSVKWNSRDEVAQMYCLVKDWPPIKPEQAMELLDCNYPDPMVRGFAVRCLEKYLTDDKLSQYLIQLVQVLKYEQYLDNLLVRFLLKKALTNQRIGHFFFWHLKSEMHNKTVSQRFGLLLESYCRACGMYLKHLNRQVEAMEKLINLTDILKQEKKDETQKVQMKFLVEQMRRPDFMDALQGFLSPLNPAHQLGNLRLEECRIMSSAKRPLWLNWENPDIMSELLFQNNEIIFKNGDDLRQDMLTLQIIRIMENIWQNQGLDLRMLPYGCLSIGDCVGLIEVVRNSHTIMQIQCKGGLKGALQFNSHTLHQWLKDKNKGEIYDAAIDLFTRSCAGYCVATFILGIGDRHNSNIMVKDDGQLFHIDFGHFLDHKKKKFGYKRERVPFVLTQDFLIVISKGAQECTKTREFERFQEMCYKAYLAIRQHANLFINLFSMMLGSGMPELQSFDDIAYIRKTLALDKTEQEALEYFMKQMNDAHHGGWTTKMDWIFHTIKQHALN
UniProt P51817, sequence (whole entry, looked up): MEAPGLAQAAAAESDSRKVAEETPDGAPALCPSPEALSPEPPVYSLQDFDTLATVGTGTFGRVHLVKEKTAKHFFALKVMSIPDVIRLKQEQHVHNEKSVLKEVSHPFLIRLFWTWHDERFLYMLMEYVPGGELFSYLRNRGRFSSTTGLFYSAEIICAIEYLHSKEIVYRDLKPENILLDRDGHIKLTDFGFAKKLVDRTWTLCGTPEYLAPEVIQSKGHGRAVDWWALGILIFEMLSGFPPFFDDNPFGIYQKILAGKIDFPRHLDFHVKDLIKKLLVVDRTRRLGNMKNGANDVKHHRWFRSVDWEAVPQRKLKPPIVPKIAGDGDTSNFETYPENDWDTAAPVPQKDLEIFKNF
UniProt Q13555, sequence (whole entry, looked up): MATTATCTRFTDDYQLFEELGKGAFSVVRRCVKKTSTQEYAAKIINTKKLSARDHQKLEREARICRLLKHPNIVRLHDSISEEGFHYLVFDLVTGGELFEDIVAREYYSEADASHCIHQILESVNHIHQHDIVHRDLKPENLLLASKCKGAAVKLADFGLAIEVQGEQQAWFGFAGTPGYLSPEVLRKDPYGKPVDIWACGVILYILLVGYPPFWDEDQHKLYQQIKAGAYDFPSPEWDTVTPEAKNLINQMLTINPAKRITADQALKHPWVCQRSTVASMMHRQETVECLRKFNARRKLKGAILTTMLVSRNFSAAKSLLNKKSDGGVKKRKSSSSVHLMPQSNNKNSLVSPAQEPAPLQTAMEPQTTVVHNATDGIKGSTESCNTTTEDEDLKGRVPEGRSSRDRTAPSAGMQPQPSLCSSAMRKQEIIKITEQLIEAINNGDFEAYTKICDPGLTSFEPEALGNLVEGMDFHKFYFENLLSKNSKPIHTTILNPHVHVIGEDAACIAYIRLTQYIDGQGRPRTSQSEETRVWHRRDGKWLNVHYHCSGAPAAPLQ
UniProt P07333, sequence (whole entry, looked up): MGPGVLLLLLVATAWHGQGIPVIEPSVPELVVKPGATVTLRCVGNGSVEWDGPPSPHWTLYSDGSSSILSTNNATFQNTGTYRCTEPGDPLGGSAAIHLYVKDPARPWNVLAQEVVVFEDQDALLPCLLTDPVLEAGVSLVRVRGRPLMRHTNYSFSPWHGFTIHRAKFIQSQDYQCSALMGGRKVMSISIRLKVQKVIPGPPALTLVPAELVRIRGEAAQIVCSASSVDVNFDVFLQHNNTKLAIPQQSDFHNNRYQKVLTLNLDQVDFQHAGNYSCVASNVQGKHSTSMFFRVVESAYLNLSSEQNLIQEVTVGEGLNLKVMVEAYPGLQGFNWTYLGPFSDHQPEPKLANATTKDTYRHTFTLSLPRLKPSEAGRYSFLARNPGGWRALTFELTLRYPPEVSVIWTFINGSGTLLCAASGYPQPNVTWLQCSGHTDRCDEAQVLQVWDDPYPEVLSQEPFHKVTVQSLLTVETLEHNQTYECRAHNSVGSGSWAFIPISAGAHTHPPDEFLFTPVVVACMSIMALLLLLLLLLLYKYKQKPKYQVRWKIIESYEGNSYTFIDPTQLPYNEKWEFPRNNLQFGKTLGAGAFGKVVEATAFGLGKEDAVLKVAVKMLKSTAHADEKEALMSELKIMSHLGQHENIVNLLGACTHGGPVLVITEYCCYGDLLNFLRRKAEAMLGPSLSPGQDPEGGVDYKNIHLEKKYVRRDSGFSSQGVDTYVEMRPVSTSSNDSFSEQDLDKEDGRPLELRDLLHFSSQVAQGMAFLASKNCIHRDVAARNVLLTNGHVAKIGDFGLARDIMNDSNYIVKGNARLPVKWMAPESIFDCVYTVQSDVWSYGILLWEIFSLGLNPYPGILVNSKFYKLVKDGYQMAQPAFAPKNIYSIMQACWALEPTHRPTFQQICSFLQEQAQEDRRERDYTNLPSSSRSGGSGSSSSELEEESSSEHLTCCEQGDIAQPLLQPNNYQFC
UniProt Q6ZWH5, sequence (whole entry, looked up): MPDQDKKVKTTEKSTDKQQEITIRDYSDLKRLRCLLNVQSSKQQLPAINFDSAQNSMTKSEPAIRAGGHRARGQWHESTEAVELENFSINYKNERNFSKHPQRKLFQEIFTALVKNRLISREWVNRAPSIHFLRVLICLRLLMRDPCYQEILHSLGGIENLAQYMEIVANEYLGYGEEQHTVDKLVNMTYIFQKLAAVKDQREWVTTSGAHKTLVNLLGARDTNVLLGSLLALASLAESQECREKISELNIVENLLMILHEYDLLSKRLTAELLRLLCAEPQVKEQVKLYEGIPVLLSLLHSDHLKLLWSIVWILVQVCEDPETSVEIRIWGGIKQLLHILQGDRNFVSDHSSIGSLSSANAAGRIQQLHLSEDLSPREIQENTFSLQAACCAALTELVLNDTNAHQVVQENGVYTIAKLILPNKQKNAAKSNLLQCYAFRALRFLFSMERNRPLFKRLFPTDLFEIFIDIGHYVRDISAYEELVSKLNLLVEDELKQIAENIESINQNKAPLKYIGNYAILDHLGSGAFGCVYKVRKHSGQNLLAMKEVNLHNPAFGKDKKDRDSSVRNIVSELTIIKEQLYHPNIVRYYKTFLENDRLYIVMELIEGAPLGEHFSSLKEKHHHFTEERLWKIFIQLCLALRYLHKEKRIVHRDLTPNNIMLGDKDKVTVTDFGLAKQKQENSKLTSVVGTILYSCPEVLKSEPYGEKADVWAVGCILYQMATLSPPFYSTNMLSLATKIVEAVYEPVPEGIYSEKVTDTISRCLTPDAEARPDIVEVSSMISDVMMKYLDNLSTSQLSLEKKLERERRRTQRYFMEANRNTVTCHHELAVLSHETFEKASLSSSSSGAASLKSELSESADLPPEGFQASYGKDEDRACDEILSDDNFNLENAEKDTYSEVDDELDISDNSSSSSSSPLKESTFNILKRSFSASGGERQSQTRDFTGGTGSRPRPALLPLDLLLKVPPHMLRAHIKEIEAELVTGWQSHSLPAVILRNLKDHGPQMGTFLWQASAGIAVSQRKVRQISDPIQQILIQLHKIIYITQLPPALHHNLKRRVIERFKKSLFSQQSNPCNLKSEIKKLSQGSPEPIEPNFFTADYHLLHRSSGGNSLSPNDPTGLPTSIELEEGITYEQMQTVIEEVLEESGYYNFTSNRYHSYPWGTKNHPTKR
UniProt P21802, sequence (whole entry, looked up): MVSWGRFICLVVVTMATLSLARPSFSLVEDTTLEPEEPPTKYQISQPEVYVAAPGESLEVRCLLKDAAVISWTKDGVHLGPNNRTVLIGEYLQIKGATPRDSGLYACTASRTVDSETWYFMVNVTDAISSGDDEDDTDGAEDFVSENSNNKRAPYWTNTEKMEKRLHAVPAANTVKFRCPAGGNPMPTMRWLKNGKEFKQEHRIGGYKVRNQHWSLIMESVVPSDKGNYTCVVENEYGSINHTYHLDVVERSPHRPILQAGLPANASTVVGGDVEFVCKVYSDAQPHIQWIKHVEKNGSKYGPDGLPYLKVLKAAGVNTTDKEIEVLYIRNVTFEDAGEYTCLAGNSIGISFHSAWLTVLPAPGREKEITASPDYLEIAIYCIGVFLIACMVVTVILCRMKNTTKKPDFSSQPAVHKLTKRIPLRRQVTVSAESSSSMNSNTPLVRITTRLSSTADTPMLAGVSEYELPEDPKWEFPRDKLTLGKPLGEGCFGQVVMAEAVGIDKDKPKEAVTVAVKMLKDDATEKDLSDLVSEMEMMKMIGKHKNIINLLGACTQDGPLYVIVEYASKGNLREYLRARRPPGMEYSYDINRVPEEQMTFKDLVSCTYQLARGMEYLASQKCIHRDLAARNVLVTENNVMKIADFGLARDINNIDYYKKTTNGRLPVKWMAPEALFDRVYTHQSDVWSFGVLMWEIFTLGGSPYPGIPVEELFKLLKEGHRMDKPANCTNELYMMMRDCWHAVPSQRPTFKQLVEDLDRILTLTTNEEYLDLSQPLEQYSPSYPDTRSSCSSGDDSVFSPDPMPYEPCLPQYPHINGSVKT

Block 1
Target: Carbonic anhydrase 9 (CA9, Homo sapiens, UniProt Q16790)
Effect on: enzyme activity
Mode: inhibitor
Quantity: IC50
CNC(=O)c1cccc2c1CC(C)N2Cc1ccoc1C(=O)Nc1ccc(S(N)(=O)=O)cc1 (stereo not shown): 41.7 nM
CC(=O)Nc1ccc(-n2nc(C(=O)Nc3ccc(S(N)(=O)=O)cc3)cc2-c2ccco2)cc1: 60.3 nM
NS(=O)(=O)c1ccc(Cl)c(C(=O)N2CCN(C(=O)c3cccc(Cl)c3)CC2)c1: 360 nM
NS(=O)(=O)c1ccc(S(=O)(=O)N2CCN(C(=O)c3ccc(-n4cnc5ccccc54)cc3)CC2)cc1: 442 nM
NS(=O)(=O)c1ccc(NC(=O)N2CCN(Cc3ccc(-c4cccc(Cl)c4)s3)CC2)cc1: 53 nM

Block 2
SMILES: C1=C/COCc2cc(ccc2OCCN2CCCC2)Nc2nccc(n2)-c2cccc(c2)COC/1
Effect on: binding
Concentration: 0.1 µM
Quantity: remaining binding
Homeodomain-interacting protein kinase 2 (HIPK2, Homo sapiens, UniProt Q9H2X6): 2.2%
Serine/threonine-protein kinase Nek10 (NEK10, Homo sapiens, UniProt Q6ZWH5): 58%
Myosin-IIIa (MYO3A, Homo sapiens, UniProt Q8NEV4): 100%
Macrophage colony-stimulating factor 1 receptor (CSF1R, Homo sapiens, UniProt P07333): 70%
Phosphatidylinositol 4,5-bisphosphate 3-kinase catalytic subunit alpha isoform (PIK3CA, Homo sapiens, UniProt P42336, Q546K): 60%
Epidermal growth factor receptor (EGFR, Homo sapiens, UniProt P00533, T790M): 94%
Phosphatidylinositol 4,5-bisphosphate 3-kinase catalytic subunit alpha isoform (PIK3CA, Homo sapiens, UniProt P42336): 77%
Activin receptor type-1-like (ACVRL1, Homo sapiens, UniProt P37023): 39%

Block 3
Structure (SMILES): C=CC(=O)N1CCC(COCC(=O)N2CCN(c3nc(-c4cnc(N)nc4C(F)F)nc(N4CCOC[C@@H]4C)n3)CC2)CC1
Effect on: binding
Method: competition with immobilised ligand
Concentration: 1 µM
Quantity: remaining binding
Calcium-dependent protein kinase 1 (CDPK1, Plasmodium falciparum, UniProt P62344): 100%
Phosphatidylinositol 4,5-bisphosphate 3-kinase catalytic subunit alpha isoform (PIK3CA, Homo sapiens, UniProt P42336, H1047L): 0%
Serine/threonine-protein kinase pim-1 (PIM1, Homo sapiens, UniProt P11309): 100%
Phosphatidylinositol 4,5-bisphosphate 3-kinase catalytic subunit alpha isoform (PIK3CA, Homo sapiens, UniProt P42336, M1043I): 11%

Block 4
SMILES: CCCCC(=O)Nc1ccc(-c2ccc3ncn(CCC)c(=O)c3c2)cn1
Effect on: binding
Method: competition with immobilised ligand
Concentration: 0.5 µM
Quantity: remaining binding
Serine/threonine-protein kinase Nek2 (NEK2, Homo sapiens, UniProt P51955): 100%
Phosphatidylinositol 4,5-bisphosphate 3-kinase catalytic subunit alpha isoform (PIK3CA, Homo sapiens, UniProt P42336, H1047L): 100%
Phosphatidylinositol 4,5-bisphosphate 3-kinase catalytic subunit alpha isoform (PIK3CA, Homo sapiens, UniProt P42336, E545K): 63%
Myosin light chain kinase (MYLK3, Homo sapiens, UniProt Q32MK0): 100%
Tyrosine-protein kinase Fyn (FYN, Homo sapiens, UniProt P06241): 100%
Calcium/calmodulin-dependent protein kinase type IV (CAMK4, Homo sapiens, UniProt Q16566): 90%
AP2-associated protein kinase 1 (AAK1, Homo sapiens, UniProt Q2M2I8): 100%
cAMP-dependent protein kinase catalytic subunit PRKX (PRKX, Homo sapiens, UniProt P51817): 100%

Other studies, line by line
CNc1ncc2c(/C=C/C(=O)N3CCC(OC)CC3)nn(Cc3cccc(C(F)(F)F)c3)c2n1  remaining activity (Calcium/calmodulin-dependent protein kinase type II subunit gamma (CAMK2G, Homo sapiens, UniProt Q13555); enzyme activity, inhibitor, radiometric; 1 µM): 97%
COc1cc(-c2cncc3c2CN(C)Cc2cc(N4CCNCC4)ccc2-3)cc(OC)c1OC  remaining activity (Proto-oncogene tyrosine-protein kinase Src (SRC, Homo sapiens, UniProt P12931, T341M); enzyme activity, inhibitor; 1 µM): 96%
Cc1cc([C@@H](C)Nc2ccccc2C(=O)O)c2nc(N3CCC(F)(F)CC3)c(C#N)c(=O)n2c1  remaining binding (Fibroblast growth factor receptor 2 (FGFR2, Homo sapiens, UniProt P21802); binding, competition with immobilised ligand; 10 µM): 100%

A few entries again (block 2):
Serine/threonine-protein kinase Nek10 (NEK10, Homo sapiens, UniProt Q6ZWH5): 58%
Myosin-IIIa (MYO3A, Homo sapiens, UniProt Q8NEV4): 100%
